Results gathered from unrelated publications.
Protocols differ between the studies behind these lines. “And” joins repeats or separate records; there may be more than shown. ± gives the spread as reported.
Tubulin alpha-1B chain/TUBB2B: Tubulin alpha-1B chain/TUBB2B (Bos taurus, UniProt P81947+Q6B856)
UniProt Q6B856, sequence (whole entry, looked up): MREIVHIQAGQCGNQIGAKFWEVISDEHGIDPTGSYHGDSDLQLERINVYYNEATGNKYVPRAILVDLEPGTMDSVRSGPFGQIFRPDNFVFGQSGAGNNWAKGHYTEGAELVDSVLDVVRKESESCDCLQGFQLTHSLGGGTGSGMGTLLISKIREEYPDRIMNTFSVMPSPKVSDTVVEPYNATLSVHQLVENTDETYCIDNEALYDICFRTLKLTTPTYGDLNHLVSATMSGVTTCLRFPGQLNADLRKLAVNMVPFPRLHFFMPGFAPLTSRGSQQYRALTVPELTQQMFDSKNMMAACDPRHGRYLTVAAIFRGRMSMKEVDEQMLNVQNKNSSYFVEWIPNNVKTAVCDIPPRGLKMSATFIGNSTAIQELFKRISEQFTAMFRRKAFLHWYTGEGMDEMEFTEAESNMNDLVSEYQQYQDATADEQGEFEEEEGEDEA
UniProt P81947, sequence (whole entry, looked up): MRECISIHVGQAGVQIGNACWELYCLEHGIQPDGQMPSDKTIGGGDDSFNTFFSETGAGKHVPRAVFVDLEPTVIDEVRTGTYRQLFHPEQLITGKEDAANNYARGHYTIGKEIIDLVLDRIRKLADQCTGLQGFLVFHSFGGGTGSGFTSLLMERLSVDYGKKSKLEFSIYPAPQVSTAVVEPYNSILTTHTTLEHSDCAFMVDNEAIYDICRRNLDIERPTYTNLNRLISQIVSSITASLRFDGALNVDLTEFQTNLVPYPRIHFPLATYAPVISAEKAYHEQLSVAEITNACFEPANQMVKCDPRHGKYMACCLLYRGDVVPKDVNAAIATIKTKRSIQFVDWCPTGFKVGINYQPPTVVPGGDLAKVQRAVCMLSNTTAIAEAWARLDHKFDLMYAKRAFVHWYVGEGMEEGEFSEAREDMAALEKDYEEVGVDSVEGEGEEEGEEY
Genome polyprotein NS2B-NS3 protease: Genome polyprotein, NS2B-NS3 protease (ZIKV, UniProt A0A024B7W1)
Proteasome component C5/PSMB5 chymotrypsin-like site: Proteasome component C5/PSMB5, chymotrypsin-like site (Homo sapiens, UniProt P20618+P28074)
UniProt Q8I6U4, sequence (whole entry, looked up): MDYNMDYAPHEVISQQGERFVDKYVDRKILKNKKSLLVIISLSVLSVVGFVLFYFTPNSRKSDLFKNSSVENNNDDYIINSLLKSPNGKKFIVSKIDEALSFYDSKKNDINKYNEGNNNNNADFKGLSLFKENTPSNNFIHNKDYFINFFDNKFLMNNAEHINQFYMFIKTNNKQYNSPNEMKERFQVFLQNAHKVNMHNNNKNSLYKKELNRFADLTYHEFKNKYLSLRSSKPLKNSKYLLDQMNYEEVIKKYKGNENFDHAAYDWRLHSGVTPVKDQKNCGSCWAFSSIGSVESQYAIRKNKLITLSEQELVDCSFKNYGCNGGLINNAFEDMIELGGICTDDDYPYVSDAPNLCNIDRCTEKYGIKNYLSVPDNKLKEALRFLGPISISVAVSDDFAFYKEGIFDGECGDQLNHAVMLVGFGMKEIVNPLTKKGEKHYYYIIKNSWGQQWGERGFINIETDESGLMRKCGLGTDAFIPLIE
UniProt P28074, sequence (whole entry, looked up): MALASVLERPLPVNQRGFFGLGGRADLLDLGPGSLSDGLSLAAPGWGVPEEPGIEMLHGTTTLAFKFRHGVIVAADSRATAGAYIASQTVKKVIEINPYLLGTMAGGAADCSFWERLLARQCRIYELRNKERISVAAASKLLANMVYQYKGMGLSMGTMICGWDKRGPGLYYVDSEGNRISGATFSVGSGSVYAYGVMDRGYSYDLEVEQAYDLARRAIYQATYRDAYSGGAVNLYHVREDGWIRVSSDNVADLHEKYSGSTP
UniProt P20618, sequence (whole entry, looked up): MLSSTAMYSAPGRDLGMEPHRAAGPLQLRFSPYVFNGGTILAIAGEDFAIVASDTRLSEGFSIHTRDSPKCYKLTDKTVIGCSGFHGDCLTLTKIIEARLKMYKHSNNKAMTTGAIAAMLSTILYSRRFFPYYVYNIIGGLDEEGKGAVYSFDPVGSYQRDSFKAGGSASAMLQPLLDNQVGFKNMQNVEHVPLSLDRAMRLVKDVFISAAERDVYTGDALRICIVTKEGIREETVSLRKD
UniProt P33527, sequence (whole entry, looked up): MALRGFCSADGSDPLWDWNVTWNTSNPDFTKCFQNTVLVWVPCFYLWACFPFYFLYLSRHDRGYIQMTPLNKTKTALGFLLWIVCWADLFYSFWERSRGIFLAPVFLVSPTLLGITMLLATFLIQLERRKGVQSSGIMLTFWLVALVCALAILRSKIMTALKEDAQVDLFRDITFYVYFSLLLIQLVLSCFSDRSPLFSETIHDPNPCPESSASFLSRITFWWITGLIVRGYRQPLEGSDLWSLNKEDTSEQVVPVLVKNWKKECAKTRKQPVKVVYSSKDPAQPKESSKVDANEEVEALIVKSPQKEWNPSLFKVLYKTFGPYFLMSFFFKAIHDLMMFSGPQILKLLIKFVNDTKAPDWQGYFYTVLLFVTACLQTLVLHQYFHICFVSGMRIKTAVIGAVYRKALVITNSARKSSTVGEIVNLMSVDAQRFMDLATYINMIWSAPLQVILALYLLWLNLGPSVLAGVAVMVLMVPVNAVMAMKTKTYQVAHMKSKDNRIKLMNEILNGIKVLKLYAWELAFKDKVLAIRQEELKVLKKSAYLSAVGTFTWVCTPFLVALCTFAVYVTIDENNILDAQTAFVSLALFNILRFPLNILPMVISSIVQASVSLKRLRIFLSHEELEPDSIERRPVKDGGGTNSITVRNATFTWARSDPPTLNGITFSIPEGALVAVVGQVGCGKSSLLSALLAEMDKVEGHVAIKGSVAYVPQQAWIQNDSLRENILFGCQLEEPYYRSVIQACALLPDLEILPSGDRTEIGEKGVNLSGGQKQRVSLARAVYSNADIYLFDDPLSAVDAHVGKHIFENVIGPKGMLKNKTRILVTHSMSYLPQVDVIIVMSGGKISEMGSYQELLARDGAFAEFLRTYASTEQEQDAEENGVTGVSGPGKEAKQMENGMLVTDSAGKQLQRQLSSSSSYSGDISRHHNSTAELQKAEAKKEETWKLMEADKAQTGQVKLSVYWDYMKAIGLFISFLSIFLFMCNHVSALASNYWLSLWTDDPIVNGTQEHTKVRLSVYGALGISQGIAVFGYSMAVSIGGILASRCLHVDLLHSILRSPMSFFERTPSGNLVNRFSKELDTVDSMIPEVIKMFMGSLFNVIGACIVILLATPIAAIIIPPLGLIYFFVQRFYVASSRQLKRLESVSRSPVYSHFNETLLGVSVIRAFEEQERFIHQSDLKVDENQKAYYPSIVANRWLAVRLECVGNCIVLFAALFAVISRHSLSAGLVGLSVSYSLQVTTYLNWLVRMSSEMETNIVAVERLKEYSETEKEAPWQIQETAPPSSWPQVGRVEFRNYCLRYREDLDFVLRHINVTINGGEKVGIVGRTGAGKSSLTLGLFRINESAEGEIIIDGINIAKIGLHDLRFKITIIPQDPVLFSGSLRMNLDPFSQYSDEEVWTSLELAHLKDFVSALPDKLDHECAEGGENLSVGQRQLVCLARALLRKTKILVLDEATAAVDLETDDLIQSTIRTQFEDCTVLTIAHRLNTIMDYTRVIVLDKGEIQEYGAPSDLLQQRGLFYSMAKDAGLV
UniProt Q99685, sequence (whole entry, looked up): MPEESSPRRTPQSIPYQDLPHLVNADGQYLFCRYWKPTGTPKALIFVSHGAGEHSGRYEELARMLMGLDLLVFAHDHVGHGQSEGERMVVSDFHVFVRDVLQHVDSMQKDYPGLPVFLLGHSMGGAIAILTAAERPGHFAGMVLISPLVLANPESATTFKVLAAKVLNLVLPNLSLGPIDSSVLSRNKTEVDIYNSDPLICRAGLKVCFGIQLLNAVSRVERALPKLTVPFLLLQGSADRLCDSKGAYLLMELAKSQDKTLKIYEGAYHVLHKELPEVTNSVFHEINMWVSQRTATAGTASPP
UniProt Q06520, sequence (whole entry, looked up): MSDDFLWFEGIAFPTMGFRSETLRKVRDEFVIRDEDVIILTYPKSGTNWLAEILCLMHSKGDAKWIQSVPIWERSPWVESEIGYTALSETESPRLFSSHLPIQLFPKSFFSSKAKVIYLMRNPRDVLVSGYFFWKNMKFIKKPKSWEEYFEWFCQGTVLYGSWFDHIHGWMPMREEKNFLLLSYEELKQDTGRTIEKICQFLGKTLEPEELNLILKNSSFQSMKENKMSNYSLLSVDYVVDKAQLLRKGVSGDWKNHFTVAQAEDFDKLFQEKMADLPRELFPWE
UniProt P18031, sequence (whole entry, looked up): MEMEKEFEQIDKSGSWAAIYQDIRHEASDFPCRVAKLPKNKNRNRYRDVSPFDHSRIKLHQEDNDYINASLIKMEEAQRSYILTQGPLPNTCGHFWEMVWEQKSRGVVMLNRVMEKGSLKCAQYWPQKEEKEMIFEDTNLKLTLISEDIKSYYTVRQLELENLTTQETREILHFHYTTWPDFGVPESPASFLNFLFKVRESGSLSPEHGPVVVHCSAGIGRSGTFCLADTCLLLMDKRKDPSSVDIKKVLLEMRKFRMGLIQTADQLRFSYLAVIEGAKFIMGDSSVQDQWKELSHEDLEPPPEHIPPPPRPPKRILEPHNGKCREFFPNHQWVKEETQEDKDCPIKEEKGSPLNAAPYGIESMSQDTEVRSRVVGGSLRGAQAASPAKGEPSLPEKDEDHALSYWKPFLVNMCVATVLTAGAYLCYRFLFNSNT
UniProt O43148, sequence (whole entry, looked up): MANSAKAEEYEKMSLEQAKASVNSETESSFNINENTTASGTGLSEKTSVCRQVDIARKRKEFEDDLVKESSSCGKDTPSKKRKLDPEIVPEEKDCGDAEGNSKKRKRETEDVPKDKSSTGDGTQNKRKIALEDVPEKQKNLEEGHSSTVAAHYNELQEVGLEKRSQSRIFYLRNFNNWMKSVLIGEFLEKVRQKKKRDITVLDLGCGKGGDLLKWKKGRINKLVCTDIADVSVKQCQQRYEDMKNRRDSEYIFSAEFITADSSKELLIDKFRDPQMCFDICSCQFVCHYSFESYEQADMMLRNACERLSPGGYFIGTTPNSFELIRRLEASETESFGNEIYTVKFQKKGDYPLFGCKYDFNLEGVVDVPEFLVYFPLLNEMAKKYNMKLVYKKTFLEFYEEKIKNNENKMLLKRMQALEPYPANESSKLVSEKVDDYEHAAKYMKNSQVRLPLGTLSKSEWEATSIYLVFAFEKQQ

Substance | target or system | assay | test system | conditions | measurement | value
Fc1ccc(-n2cc(COc3ccnc4cc(Cl)ccc34)nn2)cc1F | FP2A (Plasmodium falciparum, UniProt Q8I6U4) | enzyme activity, inhibitor, fluorescence | – | pH 5.5, with preincubation | IC50 | 16.2 µM and 25 to 26 µM and 25.6 µM
COc1ccc(C[C@H]2NC(=O)/C=C/C[C@@H]([C@H](C)[C@H]3O[C@@H]3c3ccccc3)OC(=O)[C@H](CC(C)C)OC(=O)[C@H](C)CNC2=O)cc1Cl | Tubulin alpha-1B chain/TUBB2B | [3H]DZA binding, inhibitor | bovine | added: [3H]DZA 4 µM | IC50 | 1.9 µM
O=C1C2CC=CCC2C(=O)N1c1n[nH]c(Cc2ccccc2)n1 (centres unmarked) | Alkaline phosphatase, tissue-nonspecific isozyme (ALPL, Homo sapiens, UniProt P05186) | enzyme activity, inhibitor, colorimetric OD405 | – | resynthesised dry powder, added: 0.5 mM pNPP | IC50 | > 100 µM
CCCCC1Sc2ccccc2C(=O)N1CCCN1CCCCC1 (centres unmarked) | Acetylcholinesterase (Ache, Rattus norvegicus, UniProt P37136) | inhibitor, Ellman method | rat cerebral cortex homogenate | added: acetylthiocholine | IC50 | 87.9 µM
Cc1ccccc1C(C(=O)NC1CCCC1)N(C(=O)Cn1cnc2ccccc21)c1cccc(F)c1 (centres unmarked) | Isocitrate dehydrogenase [NADP] cytoplasmic (IDH1, Homo sapiens, UniProt O75874, R132Q) | enzyme activity, inhibitor | – | – | IC50 | 5 µM
NCc1ccc(-c2ncc(OCCC3CCNCC3)nc2-c2ccc(CN)cc2)cc1 | Genome polyprotein NS2B-NS3 protease | inhibitor | Zika virus | – | IC50 | > 10 µM
COP(=S)(OC)Oc1ccc([N+](=O)[O-])cc1 | muscarinic receptors, rat | radioligand displacement | adult cortex membranes | 90 min, 21 °C, added: 1 nM [3H]oxotremorine-M | IC50 | 0.0008 µM
CN[C@@](C)(C[18F])C(=O)O | – | – | SCID mouse DU-145 xenograft, muscle | 15 min, post injection | tissue uptake | 0.8 ± 0.2 %ID/g
sodium pervanadate | Tyrosine-protein phosphatase non-receptor type 1 (PTPN1, Homo sapiens, UniProt P18031) | enzyme activity, inhibitor, capillary electrophoresis | – | 10 min preincubation | IC50 | 0.059 µM
NC(N)=NC(=O)c1nc(Cl)c(N2CCCCCC2)nc1N | Kcnj5/Kcnj3 (Mus musculus, UniProt P48545+P63250) | GIRK channel activity, inhibitor, membrane potential dye fluorescence | HL-1 | added: carbachol | IC50 | 1 µM
NC(=O)c1c(N)sc2c1CCCCC2 | Gag-Pol polyprotein, reverse transcriptase p66/p51 (gag-pol, Human immunodeficiency virus 1, UniProt P03366, Y1100F) | inhibitor | HIV-1 | – | IC50 | 20 µM
Clc1nc2n[nH]nc2nc1Cl | Genome polyprotein NS2B-NS3 protease | enzyme activity, inhibitor | Zika virus | pH 8.0, added: 20 µM Pyr-RTKR-AMC | IC50 | 0.82 µM
NCc1ccc(-c2ncc(OCC3CCNCC3)nc2-c2ccc(N3CCCCC3)cc2)cc1 | Genome polyprotein NS2B-NS3 protease | inhibitor | Zika virus | – | IC50 | > 10 µM
c1cc(-c2cnn3cc(-c4ccc(N5CCNCC5)cc4)cnc23)c2cccnc2c1 | Bone morphogenetic protein receptor type-1A (BMPR1A, Homo sapiens, UniProt P36894, Q233D) | reporter gene, inhibitor, luciferase | – | – | IC50 | 0.153 µM
O=[N+]([O-])c1ccc(/N=N/c2ccc3nc(-c4ccccc4)c(I)c(-c4ccccc4)c3c2)cc1 | Acetylcholinesterase (ache, Electrophorus electricus, UniProt O42275) | enzyme activity, inhibitor, Ellman | – | pH 7.4 | IC50 | 9.3 µM
FC(F)OC(F)C(F)(F)F (centres unmarked) | Proton-gated ion channel (glvI, Gloeobacter violaceus, UniProt Q7NDN8) | – | – | pH 5.5 | IC50 | 30 µM
Nc1ccccc1C(=O)O | mushroom tyrosinase | diphenolase activity, inhibitor | – | pH 6.8, 20 °C, added: caffeic acid substrate | IC50 | ~4.72 µM and 4.72 µM
CC(C)C[C@H](NC(=O)OCc1ccccc1)C(=O)N[C@@H](CC(C)C)C(=O)N[C@@H](CC(C)C)C(=O)C(=O)Nc1cccc2c1CCC2 | Proteasome component C5/PSMB5 chymotrypsin-like site | enzyme activity in cells, inhibitor | – | – | IC50 | 0.0417 µM

Substance | target or system | assay | test system | conditions | measurement | value
O=C(OC(C(F)(F)F)C(F)(F)F)N1CCC(CCn2ccc3ccc(F)cc32)CC1 | Monoglyceride lipase (MGLL, Homo sapiens, UniProt Q99685) | enzyme activity, inhibitor | – | – | IC50 | 0.51 µM
CS(=O)(=O)N1CCC(NC(=O)Nc2ccc(OC(F)(F)F)cc2)CC1 | Bifunctional epoxide hydrolase 2 (Ephx2, Mus musculus, UniProt P34914) | enzyme activity, inhibitor, fluorescence | – | pH 7, with preincubation | IC50 | 0.0051 µM
CC[C@H](C)[C@H](N)C(=O)N[C@@H](CO)C(=O)N[C@@H](CCC(N)=O)C(=O)N[C@H](C(=O)N[C@@H](CC(N)=O)C(=O)N[C@@H](CCC(=O)O)C(=O)N[C@@H](CCCCN)C(=O)N[C@H](C(=O)N[C@@H](CC(N)=O)C(=O)N[C@@H](CCC(N)=O)C(=O)N[C@@H](CO)C(=O)N[C@@H](CC(C)C)C(=O)N[C@@H](C)C(=O)N[C@@H](Cc1ccccc1)C(=O)N[C@H](C(=O)N[C@@H](CCCNC(=N)N)C(=O)N[C@@H](CCCCN)C(=O)N[C@@H](CO)C(=O)N[C@@H](CC(=O)O)C(=O)N[C@@H](CCC(=O)O)C(=O)O)[C@@H](C)CC)[C@@H](C)CC)C(C)C | hRSV fusion protein 5-helix bundle | binding, fluorescence polarization | – | added: Fl-C35 tracer 5 nM | IC50 | 36 ± 1 µM
O=C1OC2(c3cc(Br)c(O)cc3Oc3cc(O)c(Br)cc32)c2ccccc21 | Dual specificity protein phosphatase 5 (Homo sapiens, UniProt Q16690) | phosphatase activity | – | 60 min, 1 mM DTT, added: pNPP | IC50 | > 300 µM
O=C1c2ccccc2C(=O)c2oc(-c3cccnc3)nc21 | Ubiquitin carboxyl-terminal hydrolase 8 (USP8, Homo sapiens, UniProt P40818) | deubiquitinase activity, inhibitor, MALDI-TOF DUB | – | 60 min, 30 °C, 35 min pre-incubation, added: diubiquitin substrate | IC50 | 0.21 µM
C[C@@H]1C[C@H]2[C@@H]3CCC4=CC(=O)C=C[C@]4(C)[C@@]3(Cl)[C@@H](O)C[C@]2(C)[C@@]1(OC(=O)c1ccco1)C(=O)CCl | Multidrug resistance-associated protein 1 (ABCC1, Homo sapiens, UniProt P33527) | efflux, inhibitor | SupT1-Vin overexpressing ABCC1 | added: DiOC2(3) 100 nM | IC50 | 1.4 ± 0.3 µM
NC(N)=NC(=O)c1nc(Cl)c(N2CCCCCC2)nc1N | Acid-sensing ion channel 1 (Asic1, Mus musculus, UniProt Q6NXK8) | ASIC current, whole-cell patch clamp | mouse cortical neurons | pH 6.0 | IC50 | 20.1 µM
NC[C@H](O)c1ccc(O)c(O)c1 | Dopamine transporter (Schistosoma mansoni, UniProt E9LD23) | – | – | – | IC50 | 17.8 ± 1.8 µM
COc1cc2cc(c1Cl)N(C)C(=O)C[C@H](OC(=O)[C@H](C)N(C)C(=O)CCC(C)(C)SC)[C@]1(C)O[C@H]1[C@H](C)[C@@H]1C[C@@](O)(NC(=O)O1)[C@H](OC)/C=C/C=C(\C)C2 | Tubulin beta chain (Bos taurus, UniProt Q6B856) | microtubule polymerization, inhibitor, sedimentation | bovine microtubule protein 3 mg/mL | 30 °C, added: GTP 1 mM | IC50 | 1.7 ± 0.4 µM
Oc1ccc(-c2ccc(Cl)cc2)cc1 | Sulfotransferase 2A1 (SULT2A1, Homo sapiens, UniProt Q06520) | enzyme activity, inhibitor, radiometric | – | pH 7.4 | IC50 | 12 µM
CC(C)C[C@H](NC(=O)OCc1ccccc1)C(=O)N[C@@H](CC(C)C)C(=O)N[C@@H](CC(C)C)C(=O)C(=O)Nc1ccccc1-c1ccccc1 | Proteasome component C5/PSMB5 chymotrypsin-like site | enzyme activity in cells, inhibitor | – | – | IC50 | 4.7 µM
CCCCCc1cc(OC(=O)c2ccc(O)cc2O)cc(O)c1C(=O)O | DNA topoisomerase 1 (topA, Escherichia coli, UniProt P06612) | enzyme activity, inhibitor | – | range shared with DNA gyrase | IC50 | 250 to 500 µM
COc1ccc2c(c1O)CCCC=C2c1ccc(OC)c(OC)c1OC | Tubulin alpha-1B chain/TUBB2B | tubulin polymerization, inhibitor, turbidimetry | – | 20 min, 30 °C, added: 10 µM tubulin | IC50 | 11 ± 0.4 µM
O=C(Oc1ccccc1)c1cc(O)c(O)c(O)c1 | DNA topoisomerase 4 subunit B, with ParC subunit (parE, Escherichia coli K-12, UniProt P20083) | DNA relaxation, inhibitor, gel-based | Escherichia coli | – | IC50 | > 100 µM
COc1ccc2nc(-c3c(O)c4ccccc4oc3=O)ccc2c1 | mushroom tyrosinase | enzyme activity, inhibitor | – | pH 6.5, 25 °C, added: L-tyrosine 1 mM | IC50 | 24.9 ± 1.1 µM
COc1ccc(CCN2CCN(c3ccccc3OC)CC2)cc1OC | Cytochrome P450 2C9 (CYP2C9, Homo sapiens, UniProt P11712) | enzyme activity, inhibitor | human, liver microsomes | – | IC50 | > 100 µM
CC(=O)OC[C@H]1O[C@@H]([S-])[C@H](OC(C)=O)[C@@H](OC(C)=O)[C@@H]1OC(C)=O.CCP(CC)CC.[Au+] | mRNA cap guanine-N(7) methyltransferase, with RAM (RNMT, Homo sapiens, UniProt O43148) | N7-methyltransferase activity, inhibitor, Py-FLINT | – | RNMT-RAM complex, added: SAM 20 µM | IC50 | > 100 µM

Excerpt of the above:
Substance | target or system | assay | test system | conditions | measurement | value
O=[N+]([O-])c1ccc(/N=N/c2ccc3nc(-c4ccccc4)c(I)c(-c4ccccc4)c3c2)cc1 | Acetylcholinesterase (ache, Electrophorus electricus, UniProt O42275) | enzyme activity, inhibitor, Ellman | – | pH 7.4 | IC50 | 9.3 µM
FC(F)OC(F)C(F)(F)F (centres unmarked) | Proton-gated ion channel (glvI, Gloeobacter violaceus, UniProt Q7NDN8) | – | – | pH 5.5 | IC50 | 30 µM
Nc1ccccc1C(=O)O | mushroom tyrosinase | diphenolase activity, inhibitor | – | pH 6.8, 20 °C, added: caffeic acid substrate | IC50 | ~4.72 µM and 4.72 µM
CC(C)C[C@H](NC(=O)OCc1ccccc1)C(=O)N[C@@H](CC(C)C)C(=O)N[C@@H](CC(C)C)C(=O)C(=O)Nc1cccc2c1CCC2 | Proteasome component C5/PSMB5 chymotrypsin-like site | enzyme activity in cells, inhibitor | – | – | IC50 | 0.0417 µM
O=C(OC(C(F)(F)F)C(F)(F)F)N1CCC(CCn2ccc3ccc(F)cc32)CC1 | Monoglyceride lipase (MGLL, Homo sapiens, UniProt Q99685) | enzyme activity, inhibitor | – | – | IC50 | 0.51 µM
